Measured values pooled from the literature.
Each line is one published result; not all experiments were run side by side. Numbers after ± are the reported error.

COc1ccc(/C=C/c2nc(N)[nH]c(=O)c2Br)cc1OC — minimum cytotoxic concentration (MDCK; cell morphology alteration): 100 µM
CC(C)(c1ccc(O)cc1)c1ccc(O)cc1 — early apoptotic cells (HepG2 spheroids, dissociated; annexin V-FITC/PI flow cytometry; 10 µM, 96 h): 9.15 ± 5.89%
OO — cell survival (porcine IPEC-J2 cells; 400 µmol/L): 62.1%
O=C(O[C@@H]1Cc2c(O)cc(O)cc2O[C@@H]1c1cc(O)c(O)c(O)c1)c1cc(O)c(O)c(O)c1 — cytotoxicity (Vero E6; 6.25 µM): 0%
N#Cc1c(C(F)(F)F)cc(-c2ccccc2)nc1SCC(=O)Nc1ccccc1 — viability (MDA-MB-231; MTT; 100 µM, 72 h): 52 ± 8%
COc1ccc2c(Sc3ccc(Cl)cc3)c(C(=O)NCCCN3CCCCC3)[nH]c2c1 — AC50 (Vero E6; cytotoxicity, CellTiter-Glo; retest 8-point, no virus): 14.1 µM
COCCOCCOCCNC(=O)CSc1nc(C)cc(-c2ccccc2)c1C#N — viability (MDA-MB-231; MTT; 100 µM, 72 h): 39 ± 3%
O=c1[nH]c2ccccc2s1 — IC10 (HEK293H PPARγ-UAS-bla; cytotoxicity; 24 h, nominal concentration): 518 µM
COc1ccc(C(C)(C)c2cnc(SCCOc3ccc(-n4ccnc4)cc3)n2-c2ccc(F)cc2)cc1OC — EC50 (sandwich-cultured human hepatocytes; gene induction, inducer, refers to: CYP3A4 mRNA; 48 h): 3.9 µM
O=c1cc(-c2ccc(O)cc2)oc2c([C@@H]3O[C@H](CO)[C@@H](O)[C@H](O)[C@H]3O)c(O)cc(O)c12 — viability (Caco-2; CCK-8; 0.625 µM, 24 h): 125%
O=c1ccc2ccccc2o1 — chance response (NHEK; caspase-3/7 activity; concentration not given, 24 h): 0.28%
CN(C(=O)n1cnc(-c2ccc[n+]([O-])c2)c1)C1CCCCC1 — compound concentration (COS cells expressing human FAAH; cell lysate; 100 nM, 24 h, quantification limit 5 nM): not detected
CC[C@@H](C)[C@H]1NC(=O)[C@@H]2CCCN2C(=O)[C@H](CO)NC(=O)[C@H](CC(C)C)NC(=O)[C@H](C(C)C)NC(=O)CN(C)C(=O)[C@@H](Cc2ccc(O)cc2)NC(=O)[C@@H](Cc2ccc(O)cc2)NC(=O)CSC[C@@H](C(=O)O)NC(=O)[C@@H](CC(C)C)NC1=O — Papp A to B (MDCK-MDR1; HBSS, 0.25% BSA; 2 h): 2 nm/s
COC(=O)c1ccc(NC(=O)c2sc3nc(-c4ccccc4)cc(C(F)(F)F)c3c2N)cc1 — viability (MDA-MB-231; MTT; 100 µM, 72 h): 8 ± 1%
CC(C)C[C@@H](NC(=O)[C@H](C)NC(=O)CNC(=O)[C@@H](NC=O)C(C)C)C(=O)N[C@@H](C)C(=O)N[C@@H](C(=O)N[C@H](C(=O)N[C@@H](C(=O)N[C@@H](Cc1c[nH]c2ccccc12)C(=O)N[C@H](CC(C)C)C(=O)N[C@@H](Cc1ccc2[nH]ccc2c1)C(=O)N[C@H](CC(C)C)C(=O)N[C@@H](Cc1c[nH]c2ccccc12)C(=O)N[C@@H](C(=O)N[C@@H](Cc1c[nH]c2ccccc12)C(=O)NCCO)C(C)C)[C@H](C)O)C(C)C)C(C)C — IC50 (P388 (mouse); cytotoxicity, WST-1; 92 h): 0.416 ± 0.089 µM
CC(c1ccccc1)(c1ccc(O)cc1)c1ccc(O)cc1 — early apoptotic cells (HepG2 spheroids, dissociated; annexin V-FITC/PI flow cytometry; 0.01 µM, 96 h): 5.04 ± 2.09%
CC[C@H](C)[C@@H]([C@@H](CC(=O)N1CCC[C@H]1[C@H](OC)[C@@H](C)C(=O)N[C@H](C)[C@@H](O)c1ccccc1)OC)N(C)C(=O)[C@@H](NC(=O)[C@@H](NC)C(C)C)C(C)C — IC50 (SK-RC-52 (CAIX-expressing); cell proliferation, MTS; 72 h): 0.0009 µM
Cc1cccc(NC(=O)c2sc3nc(C)cc(C)c3c2N)n1 — viability (MDA-MB-231; MTT; 100 µM, 72 h): 71 ± 12%
N#C[C@@]1(n2ccc(N)nc2=O)O[C@H](CO)[C@@H](O)[C@H]1O — micronucleated cells (CHO; 62 µM, with S9): 0.44%
CCOC(=O)c1ccc(NC(=O)CCSc2nc(C)cc(C)c2C#N)cc1 — viability (MDA-MB-231; MTT; 100 µM, 72 h): 51 ± 4%
Oc1ccc(C2(c3ccc(O)cc3)c3ccccc3-c3ccccc32)cc1 — necrotic cells (HepG2 spheroids; annexin V-FITC/PI flow cytometry; 0.1 µM, 24 h): 4.66 ± 0.8%
CC(C)C[C@H]1C(=O)N[C@@H]([C@@H](C)O)C(=O)N[C@@H](CO)C(=O)N[C@@H](C)C(=O)N[C@H]([C@H](C)O)C(=O)N2CCC[C@H]2C(=O)N(C)[C@@H](CC(C)C)C(=O)N[C@H](Cc2ccc(O)cc2)C(=O)N[C@H](Cc2ccccc2)C(=O)N[C@H](C(C)C)C(=O)NCC(=O)N1C — Papp A to B (MDCK-MDR1; HBSS, 0.25% BSA; 2 h): 0.8 nm/s
CCN(CC)CCCC(C)Nc1ccnc2cc(Cl)ccc12 (stereo not drawn) — unbound fraction in cells (Vero E6; concentration not given, 4 (unit not given), with: verapamil): 0.00023
CC(C)CC(=O)OC[C@H]1O[C@@](C#N)(c2ccc3c(N)ncnn23)[C@H](O)[C@@H]1O — recovery (Caco-2; bidirectional permeability; 90 µM, 120 min; apical to basolateral): 97%
O=NN1CC2CC(C1)c1cc3nccnc3cc12 — relative survival (TK6 expressing CYP3A4; 12.5 µM, 4 h, without S9; baseline: vehicle): 86.5%
O=C(/C=C/c1ccc(O)c(O)c1/C=C/c1ccc(O)c(O)c1)O[C@H](Cc1ccc(O)c(O)c1)C(=O)O — cytotoxicity (Vero E6; 100 µM): 0%
CC(C)C[C@@H]1NC(=O)CNC(=O)[C@H]2CCCN2C(=O)[C@@H](CC(C)C)NC(=O)CNC(=O)[C@H](Cc2ccc(O)cc2)NC(=O)[C@@H](Cc2ccc(O)cc2)NC(=O)[C@@H](CCCCN)NC(=O)[C@H]([C@@H](C)O)NC(=O)[C@@H]2CCCN2C(=O)[C@H](CC(C)C)NC1=O — Papp A to B (MDCK-MDR1; HBSS, 0.25% BSA; 2 h): 6 nm/s
C[C@@H]1O[C@@H](OC[C@H]2O[C@@H](Oc3c(-c4ccc(O)c(O)c4)oc4cc(O)cc(O)c4c3=O)[C@H](O)[C@@H](O)[C@@H]2O)[C@H](O)[C@H](O)[C@H]1O — viability (Caco-2; CCK-8; 5 µM, 24 h): 110%
Cc1cc(C)c(C#N)c(SCC(=O)Nc2ccon2)n1 — viability (MDA-MB-231; MTT; 100 µM, 72 h): 55 ± 7%
C=C[C@@](C)(/C=C/c1ccc(O)cc1)CCC=C(C)C — cytotoxicity (Vero E6; 25 µM): 0%
CN1CCN(c2ccc3nc(-c4c(N)c5c(F)cccc5[nH]c4=O)[nH]c3c2)CC1 — ATP level reduction (ARPE-19 HiBiT-fibulin-3 knock-in; cell viability, CellTiter-Glo; 1.66 µM, 48 h; baseline: vehicle): -5.14%
O=C(Nc1cccnn1)N1CCC(=Cc2cccc(Oc3ccc(C(F)(F)F)cn3)c2)CC1 — intracellular concentration (COS cells expressing human FAAH; cell lysate; 100 nM, 24 h): 34 ± 2.3 nM
CC(C)C[C@@H]1C(=O)N[C@@H](Cc2ccccc2)C(=O)N2CCC[C@H]2C(=O)N[C@@H]([C@@H](C)O)C(=O)N[C@@H](C(C)C)C(=O)N[C@H]([C@H](C)O)C(=O)N[C@@H](Cc2ccccc2)C(=O)N[C@@H](CCC(N)=O)C(=O)N[C@H](C(=O)O)CSSC[C@H](N)C(=O)N1C — Papp A to B (MDCK-MDR1; HBSS, 0.25% BSA; 2 h): 1.6 nm/s
COc1ccccc1C(NC(C)=O)c1cc(Cl)c2cccnc2c1O (stereo not drawn) — CC50 (human cells): > 20 µM
O=C(Nc1cnccc1Cl)N1CCN(Cc2ccc3c(c2)OC(F)(F)O3)CC1 — compound concentration (COS cells expressing human FAAH; cell lysate; 100 nM, 24 h, quantification limit 5 nM): not detected
O=C(Nc1cnccc1Cl)N1CCN(Cc2ccc3c(c2)OC(F)(F)O3)CC1 — supernatant concentration (COS cells expressing human FAAH; 100 nM, 3 h): 105 ± 3.9 nM
CC(C)c1cnn2c(NCc3ccccc3-n3cccn3)nc(OC3CCCNC3)nc12 (stereo not drawn) — CC50 (human cells): > 20 µM
CC(C)C[C@@H]1NC(=O)[C@@H](CCCNC(=N)N)NC(=O)[C@@H](Cc2ccc(O)cc2)NC(=O)[C@H]2CCCN2C(=O)[C@H](CC(C)C)NC(=O)[C@H](CC(C)C)NC(=O)[C@@H]2CCCN2C(=O)[C@H]([C@@H](C)O)NC(=O)[C@H]([C@@H](C)O)NC(=O)CNC(=O)CNC1=O — Papp A to B (MDCK-MDR1; HBSS, 0.25% BSA; 2 h): 4.5 nm/s
COc1cc2c(Oc3ccc4[nH]c(C)cc4c3F)ccnc2cc1OCC1(N)CC1 — grade 3 Diarrhoea (paediatric recurrent refractory sarcoma; 8 mg): 0%
CC(=O)O[C@H]1C[C@H](O[C@H]2[C@@H](O)C[C@H](O[C@H]3[C@@H](O)C[C@H](O[C@H]4CC[C@@]5(C)[C@H](CC[C@@H]6[C@@H]5C[C@@H](O)[C@]5(C)[C@@H](C7=CC(=O)OC7)CC[C@]65O)C4)O[C@@H]3C)O[C@@H]2C)O[C@H](C)[C@H]1O[C@@H]1O[C@H](CO)[C@@H](O)[C@H](O)[C@H]1O — CC50 (primary human fibroblasts uninfected; live/dead staining; 48 h): > 60 µM
O=S(=O)(c1ccc(O)cc1)c1ccc(O)cc1 — viable cells (HepG2 spheroids, dissociated; annexin V-FITC/PI flow cytometry; 40 µM, 24 h): 57%
COc1ccc(C[C@@H]2c3cc(Oc4cc(C[C@@H]5c6cc(O)c(OC)cc6CCN5C)ccc4O)c(OC)cc3CCN2C)cc1 — cytotoxicity (Vero E6; 200 µM): 25%
Cc1cc(C(F)(F)F)c2c(N)c(C(=O)Nc3ccon3)sc2n1 — viability (MDA-MB-231; MTT; 100 µM, 72 h): 42 ± 7%
CC(C)[C@H]1C(=O)N[C@@H](CCCN=C(N)N)C(=O)NCC(=O)N[C@@H](CC(=O)O)C(=O)N[C@H](Cc2ccccc2)C(=O)N1C — Papp A to B (Caco-2; 20 µM): 0.541 nm/s
CO[C@H]1C[C@@H]2CC[C@@H](C)[C@@](O)(O2)C(=O)C(=O)N2CCCC[C@H]2C(=O)O[C@H]([C@H](C)C[C@@H]2CC[C@@H](OC(=O)NCCOCCOCCOCCOCCOCCOCCOCCOCCC(=O)N3CCc4cc(Cn5nc(-c6ccc7oc(N)nc7c6)c6c(N)ncnc65)ccc4C3)[C@H](OC)C2)C[C@@H](O)[C@H](C)/C=C(\C)[C@@H](O)[C@@H](OC)C(=O)[C@H](C)C[C@H](C)/C=C/C=C/C=C/1C — dose-reducing adverse events (phase 1 dose escalation, refers to: neutropenia; advanced solid tumour patients; intravenous, 16 mg weekly, any grade): 25%
CCCc1ccc(-c2ccc([C@@H](CO)C(=O)N[C@H](C)c3ccccc3)cc2)cc1 — efflux ratio (MDCK-MDR1; baseline: B-to-A over A-to-B): 2
O=C(Nc1cccnn1)N1CCC(=Cc2cccc(Oc3ccc(C(F)(F)F)cn3)c2)CC1 — concentration (COS cells expressing human FAAH; COS cell culture supernatant; 100 nM, 0 h): 0.078 ± 0.003 µM
CCOC(=O)c1ccc(NC(=O)c2sc3nc(C)cc(C(F)(F)F)c3c2N)cc1 — viability (MDA-MB-231; MTT; 100 µM, 72 h): 60 ± 6%

Repeated from above:
CCCc1ccc(-c2ccc([C@@H](CO)C(=O)N[C@H](C)c3ccccc3)cc2)cc1 — efflux ratio (MDCK-MDR1; baseline: B-to-A over A-to-B): 2
CC(C)(c1ccc(O)cc1)c1ccc(O)cc1 — early apoptotic cells (HepG2 spheroids, dissociated; annexin V-FITC/PI flow cytometry; 10 µM, 96 h): 9.15 ± 5.89%
Cc1cccc(NC(=O)c2sc3nc(C)cc(C)c3c2N)n1 — viability (MDA-MB-231; MTT; 100 µM, 72 h): 71 ± 12%
